Experimental data collected from several papers.
Every numbered part comes from another study and shows a few of its results, in no order.
Chain of UniProt Q02779 (whole entry, looked up): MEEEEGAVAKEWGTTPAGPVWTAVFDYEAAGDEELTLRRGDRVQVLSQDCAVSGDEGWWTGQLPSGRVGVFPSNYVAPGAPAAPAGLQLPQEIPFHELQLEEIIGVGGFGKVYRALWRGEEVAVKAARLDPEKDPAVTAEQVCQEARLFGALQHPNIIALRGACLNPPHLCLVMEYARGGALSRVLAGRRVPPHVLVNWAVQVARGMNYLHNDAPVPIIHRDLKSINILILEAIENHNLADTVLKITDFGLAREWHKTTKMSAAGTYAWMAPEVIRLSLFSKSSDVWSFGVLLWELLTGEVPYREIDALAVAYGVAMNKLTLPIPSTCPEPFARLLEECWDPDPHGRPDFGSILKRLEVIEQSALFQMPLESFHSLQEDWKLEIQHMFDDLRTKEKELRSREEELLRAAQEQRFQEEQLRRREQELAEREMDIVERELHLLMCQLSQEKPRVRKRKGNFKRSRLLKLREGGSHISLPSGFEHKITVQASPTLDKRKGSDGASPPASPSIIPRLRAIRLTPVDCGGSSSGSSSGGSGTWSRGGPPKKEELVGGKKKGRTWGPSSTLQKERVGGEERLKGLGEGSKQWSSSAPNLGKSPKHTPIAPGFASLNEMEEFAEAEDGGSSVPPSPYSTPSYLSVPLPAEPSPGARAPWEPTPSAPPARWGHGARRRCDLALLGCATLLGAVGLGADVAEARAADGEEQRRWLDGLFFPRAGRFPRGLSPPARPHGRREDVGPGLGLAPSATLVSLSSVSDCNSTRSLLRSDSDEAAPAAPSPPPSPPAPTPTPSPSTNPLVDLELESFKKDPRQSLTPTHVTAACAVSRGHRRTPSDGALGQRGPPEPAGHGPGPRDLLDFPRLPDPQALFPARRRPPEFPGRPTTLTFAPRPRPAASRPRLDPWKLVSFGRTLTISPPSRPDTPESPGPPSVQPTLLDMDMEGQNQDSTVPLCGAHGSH
Chain of UniProt Q9UIK4 (whole entry, looked up): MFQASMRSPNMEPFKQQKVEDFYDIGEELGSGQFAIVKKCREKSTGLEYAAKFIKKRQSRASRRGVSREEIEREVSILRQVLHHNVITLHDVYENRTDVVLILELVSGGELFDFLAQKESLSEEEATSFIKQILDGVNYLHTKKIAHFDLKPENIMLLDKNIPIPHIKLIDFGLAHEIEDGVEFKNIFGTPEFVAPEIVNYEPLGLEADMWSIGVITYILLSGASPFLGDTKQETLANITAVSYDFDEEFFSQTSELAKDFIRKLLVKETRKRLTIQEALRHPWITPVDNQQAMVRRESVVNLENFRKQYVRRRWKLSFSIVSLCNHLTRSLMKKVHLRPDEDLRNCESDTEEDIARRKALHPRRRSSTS
Chain of UniProt P00519 (whole entry, unmodified, looked up): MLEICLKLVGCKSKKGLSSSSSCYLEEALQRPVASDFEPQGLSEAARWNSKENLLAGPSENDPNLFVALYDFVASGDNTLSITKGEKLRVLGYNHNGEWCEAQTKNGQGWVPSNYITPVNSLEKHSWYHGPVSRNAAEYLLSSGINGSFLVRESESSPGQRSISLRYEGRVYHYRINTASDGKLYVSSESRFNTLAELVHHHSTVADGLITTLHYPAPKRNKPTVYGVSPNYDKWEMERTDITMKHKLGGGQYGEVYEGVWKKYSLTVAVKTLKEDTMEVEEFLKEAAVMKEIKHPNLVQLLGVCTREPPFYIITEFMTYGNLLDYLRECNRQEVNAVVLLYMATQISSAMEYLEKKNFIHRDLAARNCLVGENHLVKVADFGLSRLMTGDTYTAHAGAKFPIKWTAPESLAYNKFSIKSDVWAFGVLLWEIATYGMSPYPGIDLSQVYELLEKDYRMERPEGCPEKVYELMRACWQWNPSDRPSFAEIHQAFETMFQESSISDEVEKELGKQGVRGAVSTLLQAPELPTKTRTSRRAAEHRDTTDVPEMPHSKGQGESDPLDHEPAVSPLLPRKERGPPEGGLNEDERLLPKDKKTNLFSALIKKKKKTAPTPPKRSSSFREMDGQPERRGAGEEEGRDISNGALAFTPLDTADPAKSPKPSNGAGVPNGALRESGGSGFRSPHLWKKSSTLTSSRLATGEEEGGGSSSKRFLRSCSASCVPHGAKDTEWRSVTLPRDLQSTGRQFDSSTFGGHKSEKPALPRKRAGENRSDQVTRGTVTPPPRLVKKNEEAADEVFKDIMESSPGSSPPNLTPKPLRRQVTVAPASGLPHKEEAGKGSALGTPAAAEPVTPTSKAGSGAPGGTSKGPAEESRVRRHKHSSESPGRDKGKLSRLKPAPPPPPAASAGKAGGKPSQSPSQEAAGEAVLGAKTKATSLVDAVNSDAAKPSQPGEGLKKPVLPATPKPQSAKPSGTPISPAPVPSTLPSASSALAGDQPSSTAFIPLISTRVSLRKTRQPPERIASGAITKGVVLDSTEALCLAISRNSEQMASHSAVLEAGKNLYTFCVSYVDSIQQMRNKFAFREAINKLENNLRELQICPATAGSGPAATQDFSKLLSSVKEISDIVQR
Chain of UniProt Q9H3Y6 (whole entry, looked up): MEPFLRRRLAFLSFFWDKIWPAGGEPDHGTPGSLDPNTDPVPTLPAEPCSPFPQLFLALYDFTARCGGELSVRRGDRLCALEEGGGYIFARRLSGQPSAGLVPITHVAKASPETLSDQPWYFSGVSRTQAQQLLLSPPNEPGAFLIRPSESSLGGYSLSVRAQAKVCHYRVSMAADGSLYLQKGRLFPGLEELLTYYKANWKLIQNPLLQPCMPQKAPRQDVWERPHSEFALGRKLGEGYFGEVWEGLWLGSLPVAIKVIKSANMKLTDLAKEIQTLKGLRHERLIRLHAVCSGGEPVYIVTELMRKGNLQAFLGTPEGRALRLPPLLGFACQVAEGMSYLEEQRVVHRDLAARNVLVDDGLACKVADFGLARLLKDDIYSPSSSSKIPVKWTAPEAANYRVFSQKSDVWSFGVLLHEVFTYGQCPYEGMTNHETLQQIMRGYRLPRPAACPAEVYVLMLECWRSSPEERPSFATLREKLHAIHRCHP
Chain of UniProt P10721 (whole entry, unmodified, looked up): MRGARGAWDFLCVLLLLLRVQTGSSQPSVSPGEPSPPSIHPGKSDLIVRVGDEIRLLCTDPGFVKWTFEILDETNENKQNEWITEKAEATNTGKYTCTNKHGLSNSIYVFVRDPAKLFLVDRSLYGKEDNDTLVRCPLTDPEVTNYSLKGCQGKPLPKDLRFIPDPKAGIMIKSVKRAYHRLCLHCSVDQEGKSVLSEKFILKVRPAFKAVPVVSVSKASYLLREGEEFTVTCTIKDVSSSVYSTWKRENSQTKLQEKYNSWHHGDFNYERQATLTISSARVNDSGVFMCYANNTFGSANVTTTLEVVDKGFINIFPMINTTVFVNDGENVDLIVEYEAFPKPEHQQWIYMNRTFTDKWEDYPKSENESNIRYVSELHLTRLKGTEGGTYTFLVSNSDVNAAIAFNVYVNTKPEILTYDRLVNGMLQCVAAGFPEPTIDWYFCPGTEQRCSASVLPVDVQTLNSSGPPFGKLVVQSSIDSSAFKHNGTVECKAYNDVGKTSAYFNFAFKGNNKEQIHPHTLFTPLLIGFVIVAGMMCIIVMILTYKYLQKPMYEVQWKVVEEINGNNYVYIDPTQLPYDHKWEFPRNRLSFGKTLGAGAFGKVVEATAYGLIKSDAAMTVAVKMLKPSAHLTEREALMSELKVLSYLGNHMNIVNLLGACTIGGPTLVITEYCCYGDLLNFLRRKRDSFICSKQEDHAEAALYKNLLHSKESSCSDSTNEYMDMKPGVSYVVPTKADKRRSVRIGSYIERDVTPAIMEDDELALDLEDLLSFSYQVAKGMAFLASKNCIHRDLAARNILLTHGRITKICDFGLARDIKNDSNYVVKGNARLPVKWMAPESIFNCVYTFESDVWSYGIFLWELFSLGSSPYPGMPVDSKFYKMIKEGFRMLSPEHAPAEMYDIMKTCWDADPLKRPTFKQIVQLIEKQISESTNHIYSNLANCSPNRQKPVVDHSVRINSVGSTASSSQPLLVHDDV
Chain of UniProt Q00536 (whole entry, looked up): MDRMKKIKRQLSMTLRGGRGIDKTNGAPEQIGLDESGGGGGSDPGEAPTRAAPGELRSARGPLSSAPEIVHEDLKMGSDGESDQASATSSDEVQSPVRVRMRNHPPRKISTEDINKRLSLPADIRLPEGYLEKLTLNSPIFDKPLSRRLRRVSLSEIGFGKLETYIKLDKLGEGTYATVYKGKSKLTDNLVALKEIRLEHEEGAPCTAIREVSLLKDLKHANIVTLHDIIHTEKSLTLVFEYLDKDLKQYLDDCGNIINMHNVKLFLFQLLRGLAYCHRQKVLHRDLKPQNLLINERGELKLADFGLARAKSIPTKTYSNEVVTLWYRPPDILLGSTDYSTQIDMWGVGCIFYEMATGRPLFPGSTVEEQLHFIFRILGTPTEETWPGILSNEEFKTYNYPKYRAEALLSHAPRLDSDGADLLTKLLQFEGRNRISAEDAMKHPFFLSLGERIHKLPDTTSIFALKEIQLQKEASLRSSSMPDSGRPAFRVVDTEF

Study 1
Compound: C[C@@H](c1cccc(C#N)c1)n1cc(Cl)cc(C(N)=O)c1=N
Technique: competition with immobilised ligand
Concentration: 1 µM
Quantity: remaining binding
SRMS (Homo sapiens, UniProt Q9H3Y6); cell-free assay: 83%
DAPK2 (Homo sapiens, UniProt Q9UIK4); cell-free assay: 100%
RET (Homo sapiens, UniProt P07949, V804L); cell-free assay: 86%
Tyrosine-protein kinase ABL1, non-phosphorylated (ABL1, Homo sapiens, UniProt P00519, F317I); binding: 76%
KIT (Homo sapiens, UniProt P10721, T670I/V559D); cell-free assay: 100%
MAP3K10 (Homo sapiens, UniProt Q02779); cell-free assay: 77%
CDK16 (Homo sapiens, UniProt Q00536); cell-free assay: 96%

Study 2
Target: Serine/threonine-protein kinase 16 (STK16, Homo sapiens, UniProt O75716)
Chain of UniProt O75716 (whole entry, looked up): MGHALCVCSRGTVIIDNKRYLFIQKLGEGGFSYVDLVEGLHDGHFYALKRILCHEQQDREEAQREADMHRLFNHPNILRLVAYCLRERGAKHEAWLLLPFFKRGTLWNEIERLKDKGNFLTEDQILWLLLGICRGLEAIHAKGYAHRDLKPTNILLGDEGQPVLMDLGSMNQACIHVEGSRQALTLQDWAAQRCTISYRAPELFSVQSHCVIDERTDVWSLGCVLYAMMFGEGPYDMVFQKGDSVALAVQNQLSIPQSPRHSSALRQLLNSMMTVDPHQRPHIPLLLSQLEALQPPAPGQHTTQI
Read-out: enzyme activity
Mode: inhibitor
Concentration: 0.5 µM
Reference: control
Quantity: remaining activity
c1ccc(-c2[nH]ncc2-c2ccnc3ccccc23)nc1: 100%
Cc1cn(-c2cc(NC(=O)c3ccc(C)c(Nc4nccc(-c5cccnc5)n4)c3)cc(C(F)(F)F)c2)cn1: 93.4%
CCN(CC)CCNC(=O)c1c(C)[nH]c(/C=C2\C(=O)Nc3ccc(Cl)cc32)c1C: 72.9%
O=C1c2ccccc2-c2n[nH]c3cccc1c23: 69.1%
O=C(Nc1cccc(Nc2nccc(Nc3cccc(C(F)(F)F)c3)n2)c1)C1CC1: 87%
CCOc1nc(NC(=O)Cc2cc(OC)ccc2OC)cc(N)c1C#N: 94.1%
Cn1nc2c3c(cccc31)C(=O)c1ccccc1-2: 83.3%
CN(C)C[C@H]1CCn2c(c(C3=C(c4cn(C)c5ccccc45)C(=O)NC3=O)c3ccccc32)C1: 109%
COc1cc2ncnc(Nc3ccc(O)c(Br)c3)c2cc1OC: 104%
O=C(NC(NC(=S)Nc1ccc(F)c([N+](=O)[O-])c1)C(Cl)(Cl)Cl)C(c1ccccc1)c1ccccc1 (stereo not shown): 99.4%
CCN(CC)CCNC(=O)c1c(C)[nH]c(/C=C2\C(=O)Nc3ccc(F)cc32)c1C: 55.7%
COc1cc2ncnc(Nc3cccc(Cl)c3)c2cc1OC: 101%
O=C1C(Cl)=C(N2C(=O)CCC2=O)C(=O)c2ccccc21: 100%
c1ccc(-c2cnc(Nc3ccc(OCCN4CCCC4)cc3)s2)cc1: 92%
N#Cc1c(NC(=O)c2cccc3ccccc23)sc2c1CCCC2: 98.5%
COc1cc2c(cc1OC)-c1[nH]nc(Nc3cccc(F)c3)c1C2: 96.8%
CN([C@@H](Cc1ccc(OS(=O)(=O)c2cccc3cnccc23)cc1)C(=O)N1CCN(c2ccccc2)CC1)S(=O)(=O)c1cccc2cnccc12: 104%
Ic1cccc(CSc2nnc(-c3ccncc3)o2)c1: 110%
N#C/C(=C\c1ccc(O)c(O)c1)C(=O)NCc1ccccc1: 99.1%
Cc1nc2cc3nc(-c4cccs4)cnc3cc2n1C: 95.2%
CCN(CC)C(=O)c1ccc(Nc2nc(OCC3CCCCC3)c3[nH]cnc3n2)cc1: 33.6%
Cc1cc2ncc(-c3ccccc3)nc2cc1C: 108%
O=c1cc(-c2cccc3c2Sc2ccccc2S3)oc(N2CCOCC2)c1: 95.5%

Study 3
Target: PABPC1L2, full length, GST fusion (mouse, UniProt A0ABA7IW68)
Technique: RNAcompete
Form: RNA
Sample: in vitro
Concentration: 20 nM
Setting: 7-mer, probes averaged, single round
Reference: mean of 7-mers
Direction: higher = stronger binding
Quantity: 7-mer Z-score
Residues (chain): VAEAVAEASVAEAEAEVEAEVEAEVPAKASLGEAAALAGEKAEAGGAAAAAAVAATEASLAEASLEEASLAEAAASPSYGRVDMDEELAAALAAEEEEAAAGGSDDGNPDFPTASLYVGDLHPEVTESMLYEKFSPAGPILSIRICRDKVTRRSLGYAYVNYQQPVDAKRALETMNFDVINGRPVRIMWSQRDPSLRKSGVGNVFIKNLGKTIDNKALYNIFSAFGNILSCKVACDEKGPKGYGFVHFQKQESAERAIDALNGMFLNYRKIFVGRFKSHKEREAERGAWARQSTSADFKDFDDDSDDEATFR
GUUCUCU: -0.369
ACUGGGA: 0.148
CCAAUGU: -0.237
CCCAAAA: 5.13
CAGGCGA: 0.305
CAGUCGU: -0.458
AAUUAAC: 0.0932
UGUAUUC: -0.331

Study 4
Target: Sal-like protein 4, full length isoform B (SALL4, Homo sapiens, UniProt Q9UJQ4-2, residues 1-616)
Technique: universal PBM
Form: double-stranded DNA, one strand shown
Sample: in vitro
Concentration: not given
Setting: 8-mer, flanks averaged, mean of replicates
Direction: higher = stronger binding
Quantity: E-score
Construct (chain): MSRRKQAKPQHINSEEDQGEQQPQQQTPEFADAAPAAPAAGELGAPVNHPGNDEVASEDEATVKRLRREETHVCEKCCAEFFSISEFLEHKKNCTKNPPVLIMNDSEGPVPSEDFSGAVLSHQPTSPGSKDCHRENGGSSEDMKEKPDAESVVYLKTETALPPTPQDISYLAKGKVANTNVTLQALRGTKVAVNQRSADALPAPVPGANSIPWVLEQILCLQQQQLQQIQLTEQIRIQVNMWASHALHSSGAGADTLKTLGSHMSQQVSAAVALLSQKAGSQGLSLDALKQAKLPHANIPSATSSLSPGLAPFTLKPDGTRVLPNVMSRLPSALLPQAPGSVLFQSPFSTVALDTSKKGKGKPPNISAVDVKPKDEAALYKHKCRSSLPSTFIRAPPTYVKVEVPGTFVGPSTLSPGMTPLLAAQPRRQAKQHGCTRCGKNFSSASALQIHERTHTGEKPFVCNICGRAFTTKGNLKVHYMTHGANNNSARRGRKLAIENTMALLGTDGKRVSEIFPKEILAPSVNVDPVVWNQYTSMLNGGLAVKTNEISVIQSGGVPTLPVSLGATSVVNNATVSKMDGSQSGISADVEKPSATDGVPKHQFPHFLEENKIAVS
GCTCCGTA: -0.125
TGACGAAA: 0.125
GAGTTAGA: -0.0549
CCAGTTCC: -0.276
ACTGTTCG: 0.14
CGCCGCCA: -0.359
GCAACTTA: 0.0777
CTCCACCA: -0.232

Excerpt of the above (study 1):
RET (Homo sapiens, UniProt P07949, V804L); cell-free assay: 86%
DAPK2 (Homo sapiens, UniProt Q9UIK4); cell-free assay: 100%
CDK16 (Homo sapiens, UniProt Q00536); cell-free assay: 96%
Tyrosine-protein kinase ABL1, non-phosphorylated (ABL1, Homo sapiens, UniProt P00519, F317I); binding: 76%
MAP3K10 (Homo sapiens, UniProt Q02779); cell-free assay: 77%
